# Assay results from different studies.
# Compare with care: the assays were run in different laboratories. ± marks the error that the study gave.
# Cell line: HT-29
Structure (SMILES),assay,system,setting,how to read,measurement,value
CCCC(=O)Oc1c(C)c(O)c(C(=O)/C=C/c2ccccc2)c(OC)c1C,SRB,,,reference: normal over HT-29 IC50,selectivity index,0.92
CCCCN1CCN(c2ccc3[nH]c(-c4ccc5[nH]c(-c6ccc(OCC)c(OCC)c6)nc5c4)nc3c2)CC1,SRB,,"10 µM, 48 h",,growth percent,-20.8%
CNC(=O)c1ccc2c(c1)ncn2-c1ccc(CC(=O)OC(C)(C)C)cc1,necroptosis,,"concentration not given, with: TNF",,activity,active
CCCCN1CCN(c2ccc3[nH]c(-c4ccc5[nH]c(-c6ccc(OCC)cc6)nc5c4)nc3c2)CC1,SRB,,"10 µM, 48 h",,growth percent,21.4%
Nc1nc(=O)n([C@H]2C[C@H](O)[C@@H](CO)O2)cc1CSCCCC[C@H](N)C(=O)O,nLC-MS,,"10 µM, 96 h",reference: untreated,genomic 5-methylcytosine level,2.5 fold
COc1c(C)c(OC(C)=O)c(C)c(OC(C)=O)c1C(=O)/C=C/c1ccccc1,SRB,,,reference: normal over HT-29 IC50,selectivity index,0.75
O=C1NCCc2[nH]c(-c3ccncc3)cc21,MTS,colon cancer,,,IC50,5.04 µM
CCCCN1CCN(c2ccc3nc(-c4ccc5nc(-c6cc(OC)ccc6OC)[nH]c5c4)[nH]c3c2)CC1,SRB,,"10 µM, 48 h",,growth percent,91.6%
C#C[C@@]1(O)[C@@H](CO)O[C@@H](n2cc(Br)c3c(N)ncnc32)[C@@H]1O,SRB,,NCI-60 screen,,TGI,> 100 µM
[Cl-].c1csc([I+]c2cccs2)c1,DCF flow cytometry,,"5 µM, 1 h, with: DPI 200 nM",,intracellular ROS level,decreased
O=C(Nc1nnc2n3c(=S)[nH][nH]c3nc(-c3ccc(Cl)cc3)c1-2)c1ccccc1,SRB,,"10 µM, NCI60 single-dose screen, colon cancer",reference: untreated,cell growth,117%
C#C[C@@]1(O)[C@@H](CO)O[C@@H](n2cc(F)c3c(N)ncnc32)[C@@H]1O,SRB,,NCI-60 screen,,TGI,> 100 µM
CCN(CC)c1ccc(C=NNC(=O)CSc2nc3ccccc3c(=O)n2Cc2ccc(S(N)(=O)=O)cc2)c(O)c1,NCI five-dose screen,,,,TGI,> 100 µM
Cc1cc(C)n(C(=S)[S][Au][PH](CCCCCC[PH]([Au][S]C(=S)n2nc(C)cc2C)(c2ccccc2)c2ccccc2)(c2ccccc2)c2ccccc2)n1,"cell growth, NCI-60 screen",,colon cancer,,log10 TGI,> -4
Cc1cc(-c2ccccc2)n(-c2nc(-c3ccc(Cl)cc3)c3c(NC(=O)c4ccccc4)nnc-3[nH]2)n1,SRB,,"10 µM, NCI60 single-dose screen, colon cancer",reference: untreated,cell growth,114%
COc1c(C)c(OC(=O)c2ccccc2)c(C)c(O)c1C(=O)/C=C/c1ccccc1,SRB,,,reference: normal over HT-29 IC50,selectivity index,> 1.54
CCn1cc(-c2cc(Cn3ccoc3=N)cc3c2CCN([C@@H](C)c2cc(OC)ccn2)C3=O)c(C(F)(F)F)n1,"cell growth, inhibitor",,120 h,,EC50,> 30 µM
COc1c(C)c(OC(C)=O)c(C)c(O)c1C(=O)/C=C/c1ccccc1,SRB,,,reference: normal over HT-29 IC50,selectivity index,0.8
CCCCN1CCN(c2ccc3[nH]c(-c4ccc5[nH]c(-c6cc(OC)c(OC)c(OC)c6)nc5c4)nc3c2)CC1,SRB,,"10 µM, 48 h",,growth percent,56%
Cc1cc(=O)[nH]n1-c1nc(-c2ccc(Cl)cc2)c2c(NC(=O)c3ccccc3)nnc-2[nH]1,SRB,,"10 µM, NCI60 single-dose screen, colon cancer",reference: untreated,cell growth,108%
COc1cccc(OC)c1-c1cc(C(=O)NC2(C(=O)O)C3CC4CC(C3)CC2C4)nn1-c1ccc(C(=O)N(C)CCCN(C)CCCN(C)C(=O)CN2CCN(CC(=O)[O-])CCN(CC(=O)[O-])CCN(CC(=O)[O-])CC2)cc1C(C)C.[177Lu+3] (stereo not drawn),,,"concentration not given, 240 min, 37 °C",reference: added,surface-bound activity,1.4 ± 0.04%
CCOc1ccc(-c2nc3cc(-c4nc5cc(N6CCN(C)CC6)ccc5[nH]4)ccc3[nH]2)cc1OCC,SRB,,"10 µM, 48 h",,growth percent,19.4%
COc1c(C)c(OS(=O)(=O)c2ccc3ccccc3c2)c(C)c(O)c1C(=O)/C=C/c1ccccc1,SRB,,,reference: normal over HT-29 IC50,selectivity index,1.23
O=C(Nc1nnc2[nH]c(=S)[nH]c(-c3ccc(Cl)cc3)c1-2)c1ccccc1,SRB,,"10 µM, NCI60 single-dose screen, colon cancer",reference: untreated,cell growth,105%
COc1c(C)c(OC(=O)c2ccc(C)cc2)c(C)c(O)c1C(=O)/C=C/c1ccccc1,SRB,,,reference: normal over HT-29 IC50,selectivity index,0.95
Cc1n[nH]c2nc(-c3ccc(Cl)cc3)c3c(NC(=O)c4ccccc4)nnc-3n12,SRB,,"10 µM, NCI60 single-dose screen, colon cancer",reference: untreated,cell growth,119%
CCCN1CCN(c2ccc3[nH]c(-c4ccc5[nH]c(-c6ccc(OCC)c(OCC)c6)nc5c4)nc3c2)CC1,SRB,,"10 µM, 48 h",,growth percent,-31.4%

# For quick reference, copied from above:
Structure (SMILES),assay,system,setting,how to read,measurement,value
COc1c(C)c(OC(=O)c2ccc(C)cc2)c(C)c(O)c1C(=O)/C=C/c1ccccc1,SRB,,,reference: normal over HT-29 IC50,selectivity index,0.95
Cc1n[nH]c2nc(-c3ccc(Cl)cc3)c3c(NC(=O)c4ccccc4)nnc-3n12,SRB,,"10 µM, NCI60 single-dose screen, colon cancer",reference: untreated,cell growth,119%
